Results collected from several papers.
Lines come from different studies, so protocols differ. ± gives the spread as reported.
CDK2 with cyclin A2: Cyclin-dependent kinase 2, with cyclin A2 (CDK2, Homo sapiens, UniProt P24941)
PIP4K2A: Phosphatidylinositol 5-phosphate 4-kinase type-2 alpha (PIP4K2A, Homo sapiens, UniProt P48426)
Chain of UniProt P48426 (whole entry, looked up): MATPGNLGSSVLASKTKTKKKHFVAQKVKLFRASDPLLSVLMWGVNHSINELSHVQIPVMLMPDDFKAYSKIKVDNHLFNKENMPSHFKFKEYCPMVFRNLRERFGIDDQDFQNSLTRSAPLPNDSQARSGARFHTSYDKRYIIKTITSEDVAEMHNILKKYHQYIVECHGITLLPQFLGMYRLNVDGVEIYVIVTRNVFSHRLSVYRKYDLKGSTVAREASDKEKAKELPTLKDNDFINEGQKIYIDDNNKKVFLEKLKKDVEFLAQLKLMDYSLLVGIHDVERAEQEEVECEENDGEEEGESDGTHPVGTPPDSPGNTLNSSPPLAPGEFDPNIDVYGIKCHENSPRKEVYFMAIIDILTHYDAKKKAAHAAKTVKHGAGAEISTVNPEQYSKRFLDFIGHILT
Chain of UniProt P45984 (whole entry, looked up): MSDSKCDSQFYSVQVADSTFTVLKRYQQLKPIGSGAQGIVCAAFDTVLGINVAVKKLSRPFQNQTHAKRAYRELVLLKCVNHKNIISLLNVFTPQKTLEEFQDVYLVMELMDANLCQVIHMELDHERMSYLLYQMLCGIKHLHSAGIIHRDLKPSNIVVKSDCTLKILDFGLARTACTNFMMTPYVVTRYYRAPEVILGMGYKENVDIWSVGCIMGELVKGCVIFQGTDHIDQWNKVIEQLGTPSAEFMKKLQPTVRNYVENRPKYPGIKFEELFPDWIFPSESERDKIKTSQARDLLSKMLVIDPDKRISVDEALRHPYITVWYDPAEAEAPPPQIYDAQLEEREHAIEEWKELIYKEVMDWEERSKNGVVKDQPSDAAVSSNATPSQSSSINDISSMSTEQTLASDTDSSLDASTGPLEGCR
Chain of UniProt Q92626 (whole entry, looked up): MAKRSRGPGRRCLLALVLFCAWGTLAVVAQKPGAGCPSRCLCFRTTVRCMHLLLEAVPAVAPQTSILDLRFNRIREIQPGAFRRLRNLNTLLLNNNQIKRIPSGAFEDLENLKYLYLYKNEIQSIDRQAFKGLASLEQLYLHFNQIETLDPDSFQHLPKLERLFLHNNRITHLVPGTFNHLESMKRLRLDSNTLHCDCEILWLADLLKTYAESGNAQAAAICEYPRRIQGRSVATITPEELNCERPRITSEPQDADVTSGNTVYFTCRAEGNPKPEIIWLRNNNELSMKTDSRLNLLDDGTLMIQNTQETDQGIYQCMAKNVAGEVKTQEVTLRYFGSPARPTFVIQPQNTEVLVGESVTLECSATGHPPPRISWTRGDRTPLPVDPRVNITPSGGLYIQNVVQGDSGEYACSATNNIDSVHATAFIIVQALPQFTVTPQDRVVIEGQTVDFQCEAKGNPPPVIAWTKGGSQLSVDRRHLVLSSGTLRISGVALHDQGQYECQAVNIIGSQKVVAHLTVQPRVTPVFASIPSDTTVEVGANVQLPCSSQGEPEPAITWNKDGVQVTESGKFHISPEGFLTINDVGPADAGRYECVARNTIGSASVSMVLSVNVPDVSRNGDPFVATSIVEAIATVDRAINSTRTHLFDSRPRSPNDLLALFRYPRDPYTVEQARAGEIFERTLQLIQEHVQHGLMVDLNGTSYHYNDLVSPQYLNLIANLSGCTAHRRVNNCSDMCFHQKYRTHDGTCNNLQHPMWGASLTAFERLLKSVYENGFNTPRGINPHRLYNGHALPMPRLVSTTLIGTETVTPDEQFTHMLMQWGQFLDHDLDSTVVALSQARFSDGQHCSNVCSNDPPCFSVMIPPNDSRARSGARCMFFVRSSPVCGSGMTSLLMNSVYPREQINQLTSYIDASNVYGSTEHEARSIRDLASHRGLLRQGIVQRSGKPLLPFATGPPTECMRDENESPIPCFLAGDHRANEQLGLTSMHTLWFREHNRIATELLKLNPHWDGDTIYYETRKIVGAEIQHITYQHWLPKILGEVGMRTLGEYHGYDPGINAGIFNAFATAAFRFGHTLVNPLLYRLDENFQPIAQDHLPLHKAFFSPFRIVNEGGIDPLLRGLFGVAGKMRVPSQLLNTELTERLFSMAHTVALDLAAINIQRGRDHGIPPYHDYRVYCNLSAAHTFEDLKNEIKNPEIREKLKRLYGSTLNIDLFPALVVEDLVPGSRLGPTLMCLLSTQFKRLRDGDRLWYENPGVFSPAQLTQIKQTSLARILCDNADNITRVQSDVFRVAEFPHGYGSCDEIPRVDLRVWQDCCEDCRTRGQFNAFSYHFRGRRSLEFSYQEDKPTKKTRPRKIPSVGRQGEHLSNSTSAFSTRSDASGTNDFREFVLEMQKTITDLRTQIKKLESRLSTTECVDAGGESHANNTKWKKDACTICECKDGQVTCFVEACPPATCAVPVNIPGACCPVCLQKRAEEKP
Chain of UniProt Q12866 (whole entry, looked up): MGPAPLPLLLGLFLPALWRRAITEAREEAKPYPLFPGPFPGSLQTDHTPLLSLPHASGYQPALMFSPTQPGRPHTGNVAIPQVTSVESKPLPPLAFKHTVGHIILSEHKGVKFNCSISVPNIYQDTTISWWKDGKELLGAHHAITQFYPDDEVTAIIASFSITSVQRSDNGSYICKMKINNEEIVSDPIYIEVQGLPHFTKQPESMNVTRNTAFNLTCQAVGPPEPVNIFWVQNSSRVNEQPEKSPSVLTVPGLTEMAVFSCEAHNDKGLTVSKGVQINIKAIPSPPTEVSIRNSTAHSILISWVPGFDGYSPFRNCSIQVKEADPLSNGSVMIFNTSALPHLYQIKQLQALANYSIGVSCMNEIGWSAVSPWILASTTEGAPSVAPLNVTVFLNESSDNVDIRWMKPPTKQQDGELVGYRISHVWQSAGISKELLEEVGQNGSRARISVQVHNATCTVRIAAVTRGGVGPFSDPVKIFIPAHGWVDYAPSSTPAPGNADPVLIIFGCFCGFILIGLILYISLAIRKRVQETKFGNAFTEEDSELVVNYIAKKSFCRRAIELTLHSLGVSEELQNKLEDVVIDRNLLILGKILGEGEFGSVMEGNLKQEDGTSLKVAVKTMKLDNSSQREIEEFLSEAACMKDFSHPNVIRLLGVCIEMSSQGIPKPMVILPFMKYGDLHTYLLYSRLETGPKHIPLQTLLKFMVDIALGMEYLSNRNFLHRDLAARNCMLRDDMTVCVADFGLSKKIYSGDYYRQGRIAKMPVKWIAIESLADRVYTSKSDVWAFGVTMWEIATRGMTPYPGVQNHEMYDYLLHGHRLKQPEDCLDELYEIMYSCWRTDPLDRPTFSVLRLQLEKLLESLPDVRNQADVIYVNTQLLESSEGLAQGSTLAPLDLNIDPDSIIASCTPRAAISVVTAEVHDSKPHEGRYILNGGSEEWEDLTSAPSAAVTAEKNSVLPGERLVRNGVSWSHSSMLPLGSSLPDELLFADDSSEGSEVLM
Chain of UniProt Q9H2X6 (whole entry, looked up): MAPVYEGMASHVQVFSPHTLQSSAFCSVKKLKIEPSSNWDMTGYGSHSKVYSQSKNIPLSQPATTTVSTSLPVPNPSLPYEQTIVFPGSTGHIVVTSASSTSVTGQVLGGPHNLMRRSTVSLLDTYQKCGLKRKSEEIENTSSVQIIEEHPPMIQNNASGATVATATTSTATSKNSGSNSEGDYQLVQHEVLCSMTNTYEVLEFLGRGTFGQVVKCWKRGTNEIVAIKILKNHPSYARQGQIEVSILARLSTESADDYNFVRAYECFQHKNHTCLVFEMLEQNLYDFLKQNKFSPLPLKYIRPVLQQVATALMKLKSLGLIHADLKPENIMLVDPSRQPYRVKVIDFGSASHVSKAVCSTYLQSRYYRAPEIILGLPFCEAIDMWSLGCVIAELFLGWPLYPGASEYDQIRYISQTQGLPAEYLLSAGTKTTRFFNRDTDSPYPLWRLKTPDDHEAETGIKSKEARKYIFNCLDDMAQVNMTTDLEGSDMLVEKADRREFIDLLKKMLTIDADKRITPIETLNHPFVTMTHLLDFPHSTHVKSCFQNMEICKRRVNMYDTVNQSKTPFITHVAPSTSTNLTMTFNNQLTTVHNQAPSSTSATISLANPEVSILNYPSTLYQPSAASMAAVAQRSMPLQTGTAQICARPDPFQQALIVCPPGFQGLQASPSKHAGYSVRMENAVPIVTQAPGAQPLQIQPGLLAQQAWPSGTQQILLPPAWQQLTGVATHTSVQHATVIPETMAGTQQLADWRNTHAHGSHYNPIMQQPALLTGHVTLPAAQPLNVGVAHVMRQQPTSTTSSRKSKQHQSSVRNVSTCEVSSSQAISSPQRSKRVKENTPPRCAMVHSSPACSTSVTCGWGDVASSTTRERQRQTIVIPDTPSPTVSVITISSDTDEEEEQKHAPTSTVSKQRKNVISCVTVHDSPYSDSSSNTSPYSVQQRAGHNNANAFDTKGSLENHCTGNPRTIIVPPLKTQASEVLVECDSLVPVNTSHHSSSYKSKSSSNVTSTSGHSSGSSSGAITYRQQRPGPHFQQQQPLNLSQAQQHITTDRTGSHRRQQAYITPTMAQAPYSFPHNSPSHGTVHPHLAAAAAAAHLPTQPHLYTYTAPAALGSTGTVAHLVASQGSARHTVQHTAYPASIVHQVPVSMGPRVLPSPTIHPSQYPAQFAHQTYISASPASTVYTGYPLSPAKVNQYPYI
Chain of UniProt Q9Y572 (whole entry, looked up): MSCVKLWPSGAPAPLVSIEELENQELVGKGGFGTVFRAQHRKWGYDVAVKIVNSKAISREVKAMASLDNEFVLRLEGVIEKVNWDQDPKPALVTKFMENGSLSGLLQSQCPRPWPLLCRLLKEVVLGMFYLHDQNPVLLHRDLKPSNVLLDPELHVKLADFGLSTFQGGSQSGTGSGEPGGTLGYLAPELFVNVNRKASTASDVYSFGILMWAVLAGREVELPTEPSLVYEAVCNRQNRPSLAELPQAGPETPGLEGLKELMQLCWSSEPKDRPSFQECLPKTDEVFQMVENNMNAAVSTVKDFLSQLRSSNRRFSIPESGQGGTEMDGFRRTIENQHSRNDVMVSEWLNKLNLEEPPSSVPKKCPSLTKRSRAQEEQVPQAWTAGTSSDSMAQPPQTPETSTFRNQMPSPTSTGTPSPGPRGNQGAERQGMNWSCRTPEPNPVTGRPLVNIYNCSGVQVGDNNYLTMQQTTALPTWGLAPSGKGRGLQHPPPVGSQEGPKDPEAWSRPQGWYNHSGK

For O=C(NC1CCC1)c1ccc2nc(-c3cccc(NS(=O)(=O)NCCN4CCCCC4)c3)cn2c1, the remaining activity was 100% (Citron Rho-interacting kinase (CIT, Homo sapiens, UniProt O14578); enzyme activity; 10 µM).
Cc1cc(NC(=O)c2cccc(NC(=O)/C=C/CN(C)C)c2)ccc1Nc1nccc(-c2cccnc2)n1 gave a remaining activity of 0.84 (Mitogen-activated protein kinase 9 (MAPK9, Homo sapiens, UniProt P45984); enzyme activity, inhibitor; 0.006774 µM, unit not given; reference: vehicle).
CC(=O)Nc1c(N)nc(SCC(=O)NN)[nH]c1=O gave a remaining activity of 58.8% (CDK2 with cyclin A2; kinase activity; 100 nM).
The remaining activity of COc1ccc(F)cc1C(=O)NCc1ccc(-c2nn([C@@H](C)C(F)(F)F)c(N)c2C(N)=O)cc1 is reported as 84.8 ± 0.4% (cAMP-dependent protein kinase catalytic subunit beta (PRKACB, Homo sapiens, UniProt P22694); kinase activity, inhibitor, HotSpot radiometric; 100 nM, added: ATP 10 µM).
With COc1cc(-c2cncc3c2CN(C)Cc2cc(N4CCNCC4)ccc2-3)cc(OC)c1OC the remaining activity was 106% (PIP4K2A; kinase activity; 1 µM, human enzyme, added: ATP 10 µM; reference: DMSO control).
C=CC(=O)N1CCC[C@@H](n2nc(-c3ccc(Oc4ccccc4)cc3)c3c(N)ncnc32)C1 has a remaining activity of 101% (Ephrin type-A receptor 3 (EPHA3, Homo sapiens, UniProt P29320); 1 µM).
With CNC(=O)c1cc(Oc2ccc(NC(=O)Nc3ccc(Cl)c(C(F)(F)F)c3)cc2)ccn1 the remaining activity was 41.8% (CDK2 with cyclin A2; kinase activity, inhibitor, ADP-Glo kinase; 100 nM).
NC/C(=C\F)COc1cccc(Cn2c(=S)[nH]c(=O)c3[nH]cnc32)c1 gave a remaining activity of 86.8% (Peroxidasin homolog (PXDN, Homo sapiens, UniProt Q92626); Amplex UltraRed; 2.5 µM, mean of replicates; reference: control).
COc1cc(F)ccc1-c1ncnc(Nc2cccc(C[S@](C)(=N)=O)c2)n1 gave a remaining activity of 108% (PIP4K2A; kinase activity; 10 µM, added: 10 µM ATP).
O=C(O)c1ccc(Nc2ncc3c(n2)-c2ccc(Cl)cc2C(c2c(F)cccc2F)=NC3)cc1 has a remaining activity of 110% (human Snk(h); kinase activity; 1 µM).
CC(=O)Nc1c(N)nc(SCC(=O)N/N=C/c2ccc([N+](=O)[O-])cc2)[nH]c1=O gave a remaining activity of 32.8% (CDK2 with cyclin A2; kinase activity; 1000 nM).
With Cc1cc(Nc2cc(N3CCN(C)CC3)nc(Sc3ccc(NC(=O)C4CC4)cc3)n2)[nH]n1 the remaining activity was 100% (Tyrosine-protein kinase Mer (MERTK, Homo sapiens, UniProt Q12866); kinase activity, KinaseProfiler; 0.03 µM, species human; reference: control).
With C=CC(=O)N1CCC[C@@H](n2nc(-c3ccc(Oc4ccccc4)cc3)c3c(N)ncnc32)C1 the remaining activity was 44.9 ± 0.3% (Receptor-interacting serine/threonine-protein kinase 3 (RIPK3, Homo sapiens, UniProt Q9Y572); kinase activity, inhibitor, HotSpot radiometric; 100 nM, added: ATP 10 µM).
With CNc1ncc2c(/C=C/C(=O)N3CCC(OC)CC3)nn(Cc3cccc(C(F)(F)F)c3)c2n1 the remaining activity was 83% (Wee1-like protein kinase (WEE1, Homo sapiens, UniProt P30291); kinase activity, inhibitor; 1 µM; reference: untreated control).
COc1cc(N2CCN(C)CC2)ccc1Nc1nc(N)n(C(=S)NCc2c(Cl)cccc2Cl)n1 has a remaining activity of 10% (Homeodomain-interacting protein kinase 2 (HIPK2, Homo sapiens, UniProt Q9H2X6); enzyme activity; 10 µM; reference: control).
The remaining activity of COc1cc(Nc2ncc3c(n2)-c2ccc(Cl)cc2C(c2c(F)cccc2OC)=NC3)ccc1C(=O)O is reported as 102% (EPHA8; kinase activity; 1 µM).

Some of these lines once more:
With CNc1ncc2c(/C=C/C(=O)N3CCC(OC)CC3)nn(Cc3cccc(C(F)(F)F)c3)c2n1 the remaining activity was 83% (Wee1-like protein kinase (WEE1, Homo sapiens, UniProt P30291); kinase activity, inhibitor; 1 µM; reference: untreated control).
